Measurements pooled from the literature.
Every numbered part comes from another study and shows a few of its results, in no order. Substitutions count along the parent as printed.

Set 1
Target: Sal-like protein 4, full length isoform A (SALL4, Homo sapiens, UniProt Q9UJQ4, residues 1-1053)
Sequence of UniProt Q9UJQ4 (whole entry, looked up): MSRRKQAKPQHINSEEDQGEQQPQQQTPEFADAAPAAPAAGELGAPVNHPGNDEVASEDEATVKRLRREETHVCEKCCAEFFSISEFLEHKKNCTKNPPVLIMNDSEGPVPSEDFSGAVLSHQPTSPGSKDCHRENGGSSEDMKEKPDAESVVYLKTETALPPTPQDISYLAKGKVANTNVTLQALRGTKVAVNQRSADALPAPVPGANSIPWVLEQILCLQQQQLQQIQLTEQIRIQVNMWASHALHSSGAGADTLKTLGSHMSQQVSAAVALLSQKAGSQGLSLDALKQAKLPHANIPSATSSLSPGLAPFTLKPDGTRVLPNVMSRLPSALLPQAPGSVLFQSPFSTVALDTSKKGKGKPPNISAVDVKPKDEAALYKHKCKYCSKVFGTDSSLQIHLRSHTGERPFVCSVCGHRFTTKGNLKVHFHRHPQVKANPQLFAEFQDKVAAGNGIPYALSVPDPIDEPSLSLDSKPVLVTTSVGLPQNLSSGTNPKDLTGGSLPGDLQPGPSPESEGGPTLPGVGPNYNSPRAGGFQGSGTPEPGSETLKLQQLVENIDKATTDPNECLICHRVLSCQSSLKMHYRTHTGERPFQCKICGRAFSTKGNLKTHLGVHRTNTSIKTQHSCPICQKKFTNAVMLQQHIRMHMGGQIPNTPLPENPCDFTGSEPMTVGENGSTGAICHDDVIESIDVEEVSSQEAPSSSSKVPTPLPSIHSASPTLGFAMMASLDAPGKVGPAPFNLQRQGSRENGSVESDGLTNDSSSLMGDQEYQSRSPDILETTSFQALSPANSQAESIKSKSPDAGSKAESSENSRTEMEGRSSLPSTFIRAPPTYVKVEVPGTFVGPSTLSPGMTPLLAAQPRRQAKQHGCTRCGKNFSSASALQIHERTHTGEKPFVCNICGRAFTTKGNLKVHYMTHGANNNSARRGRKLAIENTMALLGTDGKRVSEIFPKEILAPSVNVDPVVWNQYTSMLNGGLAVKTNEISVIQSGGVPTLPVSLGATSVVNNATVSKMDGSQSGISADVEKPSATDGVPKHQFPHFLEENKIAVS
Technique: universal PBM
Form: double-stranded DNA, one strand shown
Medium: in vitro
Concentration: 600 nM
Notes: 8-mer, flanks averaged, mean of replicates
Reading: higher = stronger binding
Strand	E-score
ATCCCGCG	-0.139
ATGACTAC	0.0988
GCTAACCC	-0.287
TAATCGAA	0.178
TACGCTAA	0.152
AGCACGAA	-0.034
AGATGTTG	-0.0723
TGACTGCA	-0.0528
ACTAGCTC	-0.0303
CGCTACCG	-0.166
AAGCTGCC	-0.21
CTCTACCC	-0.142
CATCAAGA	0.138
CCCTATCA	-0.119
GCCGAAAC	-0.205
CGCTGGGC	-0.289
GAGTCCCC	-0.396
AGTTGCAA	0.0767
AGGATAGA	0.125
TCTGTCCA	0.0383
GAGGCACC	-0.363
CATTTCAA	0.344
AGTGATGC	-0.0371
TTCTCCAA	0.106
CTAACGGA	-0.0214

Set 2
Target: Phosphate system positive regulatory protein PHO4, full length, GST-tagged (PHO4, Saccharomyces cerevisiae, UniProt P07270, residues 1-312)
Technique: competition protein-binding microarray
Form: double-stranded DNA, one strand shown
Medium: in vitro
Concentration: 2 µM
Notes: whole 60-bp probe, lowest competitor level
Together with: Cbf1 competitor, 0.05 µM
Reading: higher = stronger binding
All sequences stand within: … GTCTTGATTCGCTTGACGCTGCTG
Residues (chain): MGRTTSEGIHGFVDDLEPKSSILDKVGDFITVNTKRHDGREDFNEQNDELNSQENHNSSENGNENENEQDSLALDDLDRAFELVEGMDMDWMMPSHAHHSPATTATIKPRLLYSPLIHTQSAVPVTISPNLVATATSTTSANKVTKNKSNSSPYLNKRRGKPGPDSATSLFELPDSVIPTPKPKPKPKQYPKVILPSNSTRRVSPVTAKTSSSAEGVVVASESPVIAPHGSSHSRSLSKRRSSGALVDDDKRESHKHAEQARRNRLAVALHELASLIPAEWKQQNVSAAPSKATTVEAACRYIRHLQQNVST
Strand	fluorescence intensity [a.u.]
TGGTATAGCAATTTGCACGTTCACTGCCATTGACTT	10900
TGCGCAACAACTTGGCTTGTGGGTGTATGTCTAGAA	5070
GTCTTGTCTCATTGTCCGGTGGGTGTCCCCACTTCA	4780
TACGGCCCAACTCCGCACGCTGCCAAGGAGAGCATT	6980
AAATAAGGATTTTTGCACGTATATCCAACAGAATTA	5890
AAATTACTAAGTTGGGGGGTGGGTGACGCCGTATGA	5630
AAAGCGGTAATTTTTCACGTGGATTCACATATCTAT	14200
AATTAGAACCCATGTCCCGTGGAAGCGTTTTAAAAG	7740
AAAGCGGTAATTTTTCACGTGACCTCACATATCTAT	9710
GTCTTGTCTCATTTTCACGTGAACTTCCCCACTTCA	8740
ACACTAGAATTGACTCTCGTGGCCGTAATACGAACA	9360
AAATTACTAAGTTGCCCTGTGGGTGACGCCGTATGA	4370

Set 3
Target: Interferon regulatory factor 7, full length, phosphomimetic (IRF7, Homo sapiens, UniProt Q92985, residues 1-503, S101K/S471D/S472D/S475D/S476D/S477D/S483D/S484D/S487D)
Sequence of UniProt Q92985 (whole entry, unmodified, looked up): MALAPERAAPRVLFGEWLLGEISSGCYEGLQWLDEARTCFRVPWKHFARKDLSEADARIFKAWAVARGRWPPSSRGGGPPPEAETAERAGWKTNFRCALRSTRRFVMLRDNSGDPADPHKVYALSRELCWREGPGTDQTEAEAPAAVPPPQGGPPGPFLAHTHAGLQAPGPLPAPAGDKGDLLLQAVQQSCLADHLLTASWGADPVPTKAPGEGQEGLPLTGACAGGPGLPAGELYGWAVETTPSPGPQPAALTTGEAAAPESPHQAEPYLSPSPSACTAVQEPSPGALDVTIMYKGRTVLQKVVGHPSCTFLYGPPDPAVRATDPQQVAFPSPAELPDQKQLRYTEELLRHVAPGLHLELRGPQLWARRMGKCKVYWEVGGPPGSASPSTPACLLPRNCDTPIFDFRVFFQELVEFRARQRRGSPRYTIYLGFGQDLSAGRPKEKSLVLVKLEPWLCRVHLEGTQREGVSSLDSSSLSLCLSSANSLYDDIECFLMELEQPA
Technique: protein-binding microarray
Form: double-stranded DNA, one strand shown
Medium: in vitro
Concentration: 250 nM
Notes: 60-bp whole probe
Together with: salmon DNA 0.4 mg/ml
Baseline: random background probes
Reading: higher = stronger binding
All sequences stand within: GCCTAGCAC … GTCTTGATTCGCTTGACGCTGCTG
Strand	log fluorescence
TCACATCTCATATAAATAACTGTGCTA	0.984 z-score
TCAGTTTCCAAATTGTCACTGTGCTAG	3.62 z-score
TCATCGATTTCTCTTTCCACTGTGCTA	1.28 z-score
TCACATTTTCATTTTGTACTGTGCTAG	2.23 z-score
CACTTTTCCTACATCAGCTGGTGCTAG	3.31 z-score
TCATCACTCAATCTCAAACTGTGCTAG	0.123 z-score
TCAGCTTCCCAATTCTCACTGTGCTAG	0.912 z-score
TTAGAGCTGGGGTTTCGATTAGTGCTA	4.44 z-score
TTTTCATTGTTTTTCATCATGTGCTAG	1.87 z-score
GACTGTTTCCTTATCCTGACGTGCTAG	2.23 z-score

Set 4
Target: ABI1, truncated, D143A, DHFR fusion (Arabidopsis thaliana)
Technique: DHFR PCA, deep sequencing
Medium: yeast
Notes: methotrexate growth selection, single substitutions
Together with: (+)-ABA 0 µM
Baseline: wild-type fitted maximum
Reading: higher = stronger binding
Starting sequence: PYL1, truncated, DHFR fusion (Arabidopsis thaliana); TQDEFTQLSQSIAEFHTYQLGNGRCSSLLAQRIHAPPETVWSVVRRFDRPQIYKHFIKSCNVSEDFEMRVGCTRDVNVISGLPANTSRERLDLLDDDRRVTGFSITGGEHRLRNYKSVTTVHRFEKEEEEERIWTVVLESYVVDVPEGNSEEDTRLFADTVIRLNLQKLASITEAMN
Change	relative binding score [%]
T86F	20.7
V100W	-5.45
S104W	-2.96
I52P	-4.28
R45D	-0.559
N77V	56.1
R90Y	-2.24
R155G	-12.7
S104N	-0.65
T135V	-10.7
S87K	6.43
D144K	-6.58
V161G	-6.09
F5P	1.43
I79S	17.2
E109D	69.3

Set 5
Target: RNA binding protein fox-1 homolog 2, RRM domain, GST-SBP tag (RBFOX2, Homo sapiens, UniProt O43251-10, residues 100-194)
Technique: RNA Bind-n-Seq
Form: RNA
Medium: in vitro
Concentration: 365 nM
Notes: natural RNA segment, single round, ends assumed
Baseline: no-protein control
Reading: higher = stronger binding
All sequences stand within: GGGAGUUCUACAGUCCGACGAUC … UGGAAUUCUCGGGUGCCAA
Construct (chain): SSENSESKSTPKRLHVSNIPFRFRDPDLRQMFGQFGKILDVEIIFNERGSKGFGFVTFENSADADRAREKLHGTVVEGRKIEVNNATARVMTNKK
Strand	RBNS enrichment (R)
GGAGCCUGGAGCCUUGCUCUCUGGGCACAGAGGGCUCUGCUCUCCUGCCUGCUGGGACCUGUGGAUGGGCUUCCUGGCCAAGGCCCCCUCUUCCAGGGGAGGAGCAGGGA	0.318
UUUUAGUAGAGACGGGGUUUCACCAUGUUAGCCAGGAUGGUCUCGAUCUCCUGACCUCGUGAUCCGCCCGCCUCGGCCUCCCAAAGUGCUGGGAUUACAGGCGUGAGCCA	0.225
AAGUACCUAUAAAACCCUGUACACACCUAGUUCAUAUUCCUCAUAAUUUAUCAACAAACACAAAAAAGUGUCUUACUUGAGAGCGAAUGAGUGUGUGUGUGUGUGUGUGU	0.277
CCUGGGCCGCCCAGAGGCUCCUCUCAGGCUGGGCCCCGACGUUUGCGGCAGUGUUCCUUGUGCCCGUGGGGCCGGGAGCGAGUAAAGUCUGGGCCAGGCUGUGUGUGUGU	0.762
UUUGAUGGCUUUUUUUGCCUACCAUUUCACAGAGGUUUAGACAGCAGUAGUAGCUCCCUAGGAGAGUUUACUGAUGAAACAGCCUCUGCAAGAUUUUAAAAGUUUUGUUC	0.396
UGGCUCAGGCGCUCCCUCCAGGAUUCUGCCCCUGCCUGUCCACAGACUCCUUUGUGCUGGAACCUGGGCUCCUCCAGCUGCCAGGCAGGAGUCGGUAGGACUGUGCCUGU	1.64
GUGAGGUCUGCCUCACACCACCCACCUGCACUGCUCUCGCCUAACUGUGGACGCCGGGCACUGUUGGAAACGAAGUUUUGUAAUUUCUGCCUGAUUCACCCUUAUUGGCA	0.536
GCGUGGCCCCAGGAGUUUUGUCCUCUGCAGUUUUUAAUGCAAGUUCACUGCCACUUUGACAAAAGCCCAAUUAGAAGCCAGUCUCUAGUUCCUUAAACAAAACAGACAGA	0.542

Repeated from above (set 2):
Strand	fluorescence intensity [a.u.]
AAATTACTAAGTTGGGGGGTGGGTGACGCCGTATGA	5630
AAAGCGGTAATTTTTCACGTGGATTCACATATCTAT	14200
ACACTAGAATTGACTCTCGTGGCCGTAATACGAACA	9360
TGCGCAACAACTTGGCTTGTGGGTGTATGTCTAGAA	5070
GTCTTGTCTCATTGTCCGGTGGGTGTCCCCACTTCA	4780
GTCTTGTCTCATTTTCACGTGAACTTCCCCACTTCA	8740
AAATAAGGATTTTTGCACGTATATCCAACAGAATTA	5890
